Results from different studies.
Every numbered part comes from another study and shows a few of its results, in no order.

Block 1 — technique: protein-binding microarray; molecule type: double-stranded DNA, one strand shown; medium: in vitro; concentration: not given; direction: higher = stronger binding; endpoint: E-score
Target: Protein C-ets-1 (ETS1, Homo sapiens, UniProt P14921, residues 1-441, K379A, full length assumed)
Chain of UniProt P14921 (whole entry, unmodified, looked up): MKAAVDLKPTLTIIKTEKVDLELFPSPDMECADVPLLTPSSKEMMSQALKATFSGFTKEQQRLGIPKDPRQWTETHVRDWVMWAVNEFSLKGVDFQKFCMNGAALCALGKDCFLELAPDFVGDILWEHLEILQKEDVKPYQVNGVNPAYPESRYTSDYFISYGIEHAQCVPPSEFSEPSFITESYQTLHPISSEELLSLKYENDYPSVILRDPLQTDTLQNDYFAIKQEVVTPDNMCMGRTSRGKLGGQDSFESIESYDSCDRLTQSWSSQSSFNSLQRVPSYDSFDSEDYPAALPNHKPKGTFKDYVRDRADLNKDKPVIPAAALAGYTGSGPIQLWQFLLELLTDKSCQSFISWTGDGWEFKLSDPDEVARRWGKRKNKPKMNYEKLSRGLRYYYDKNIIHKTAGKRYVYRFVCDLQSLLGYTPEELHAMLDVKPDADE
Setting: k-mer, scored over probes, only values ≥0.25
Sequence = CCCGGTAC; result = 0.384
Sequence = ATTATGTG; result = 0.27
Sequence = ACCGGCAC; result = 0.397
Sequence = AACCGGTC; result = 0.369
Sequence = CCCGACAA; result = 0.27

Block 2 — technique: aptamer microarray, sandwich; molecule type: DNA with 2'F-ANA; medium: in vitro; concentration: 200 nM; added: Cy3 exosite-II aptamer, 400 nM; direction: higher = stronger binding; endpoint: mean fluorescence intensity; sequence: GGTTGGTGTGGTTGG
Target: Prothrombin, mature alpha-thrombin (F2, Homo sapiens, UniProt P00734)
Setting: whole 15-mer aptamer, many near background
Modification = 2'F-ANA at 1 4 6 7 14 15; result = 64.2 a.u.
Modification = 2'F-ANA at 2 4 6 7 12 13 14; result = 108 a.u.
Modification = 2'F-ANA at 2 4 7 8 12 14; result = 203 a.u.
Modification = 2'F-ANA at 2 3 6 9 10 12 14; result = 255 a.u.
Modification = 2'F-ANA at 2 4 6 7 8 9 11 12 14 15; result = 101 a.u.
Modification = 2'F-ANA at 2 3 6 8 14 15; result = 399 a.u.

Block 3 — technique: protein-binding microarray; molecule type: double-stranded DNA, one strand shown; medium: in vitro; concentration: 940 nM top; setting: 60-bp whole probe; added: salmon DNA 0.4 mg/ml; reference: random background probes; direction: higher = stronger binding; endpoint: fitted relative affinity; constant ends, left off below: GCCTAGCAC … GTCTTGATTCGCTTGACGCTGCTG
Target: Interferon regulatory factor 5, full length, phosphomimetic (IRF5, Homo sapiens, UniProt Q13568-2, residues 1-514, S451D/S453D/S456D/S462D)
Sequence = GCACTGTGCCTGCTGCCCTTGTGCTAG; result = -0.506 z-score
Sequence = TTAGGTCTCCTTTTCATTTAGTGCTAG; result = 0.795 z-score
Sequence = GACGGTTTCCTTTTCCTCACGTGCTAG; result = 2.07 z-score
Sequence = GGGCCTAGCCATTATGAGTCTGTGCTA; result = -0.187 z-score
Sequence = CCCTTTCTCTCTGTGACACAGTGCTAG; result = 2.13 z-score

Other studies, line by line
Molecule = PhoQ, residues 284 288 289 292 302 303 NLALSC; target = PhoP, residues 12 14 15 18 19 HEGLL (Escherichia coli, UniProt P23836); assay = Sort-seq, refers to: YFP reporter; system = E. coli; setting = PhoQ-PhoP variant library, added: 10 µM Mg2+; how to read = reference: high Mg2+ state, higher = stronger signaling; endpoint = fold induction; result = 2.71

Repeated from above (other studies, line by line):
Molecule = PhoQ, residues 284 288 289 292 302 303 NLALSC; target = PhoP, residues 12 14 15 18 19 HEGLL (Escherichia coli, UniProt P23836); assay = Sort-seq, refers to: YFP reporter; system = E. coli; setting = PhoQ-PhoP variant library, added: 10 µM Mg2+; how to read = reference: high Mg2+ state, higher = stronger signaling; endpoint = fold induction; result = 2.71
